Measurements pooled from the literature.
Protocols differ between the studies behind these lines. ± marks the error that the study gave.

| SMILES | tested on | assay | test system | conditions | endpoint | result |
| --- | --- | --- | --- | --- | --- | --- |
| O=[N+]([O-])c1ccc(/C=N/N=C/c2ccc(F)cc2)o1 | Trypanosoma equiperdum | parasite growth, CellTiter-Glo | IVM-t1 bloodstream form | 72 h | IC50 | 2460 ± 700 nM |
| COCCn1c2ccc([N+](=O)[O-])cc2c(=O)n1Cc1ccccc1 | Leishmania amazonensis | parasite growth, resazurin |  | 72 h, promastigote | IC50 | 1700 nM |
| CC1=CCC2(O)C1C1OC(=O)C(CN(C)C)C1CCC2(C)O (single isomer, unassigned) | Artemia salina | survival | larvae | 24 h | IC50 | 104 µg/mL |
| COc1cc(CNC(=O)C[C@H](C)CCC=C(C)C)ccc1O | UACC-257 melanoma cells | SRB |  | 10 µM, 48 h | growth percent | 113% |
| C=CCn1c2ccc([N+](=O)[O-])cc2c(=O)n1Cc1ccccc1 | Leishmania amazonensis | parasite growth, resazurin |  | 72 h, promastigote | IC50 | 2500 nM |
| CC(C)=CCC/C(C)=C/CNCCNC1C2CC3CC(C2)CC1(O)C3 (centres unmarked) | Mycolicibacterium smegmatis | microbial growth |  |  | IC50 | 14000 nM |
| O=[N+]([O-])c1ccc(/C=N/N=C/c2ccc([N+](=O)[O-])s2)cc1 | Trypanosoma equiperdum | parasite growth, CellTiter-Glo | IVM-t1 bloodstream form | 72 h | IC50 | 1010 ± 500 nM |
| O=[N+]([O-])/C=C/c1ccco1 | Leishmania amazonensis | parasite growth |  | 72 h, promastigote | IC50 | 4700 nM |
| CCOC(=O)C(NC(=O)CN1C(=O)/C(=C/c2ccc3c(c2)OCO3)SC1=S)C(C)C (centres unmarked) | Trypanosoma equiperdum | cell viability | IVM-t1 | 72 h | IC50 | > 69000 nM |
| CCCn1c2ccc([N+](=O)[O-])cc2c(=O)n1Cc1ccccc1 | Leishmania amazonensis | parasite growth, resazurin |  | 72 h, promastigote | IC50 | 800 nM |
| COc1cc(CNC(=O)C[C@H](C)CCC=C(C)C)ccc1OCc1cn(-c2ccc(Cl)cc2Cl)nn1 | OVCAR-8 ovarian cancer cells | SRB |  | 10 µM, 48 h | growth percent | 29.3% |
| COc1ccc(/C=N/N=C/c2ccc([N+](=O)[O-])o2)cc1 | Trypanosoma equiperdum | parasite growth, CellTiter-Glo | IVM-t1 bloodstream form | 72 h | IC50 | 3150 ± 530 nM |
| CC(=O)OCCn1c2ccc([N+](=O)[O-])cc2c(=O)n1Cc1ccccc1 | Leishmania amazonensis | parasite growth, imaging | mouse Peritoneal macrophage | 48 h, intracellular, amastigote | IC50 | 460 nM |
| O=[N+]([O-])c1ccc(/C=N/N=C/c2ccc(Cl)cc2)o1 | Trypanosoma equiperdum | parasite growth, CellTiter-Glo | IVM-t1 bloodstream form | 72 h | IC50 | 1180 ± 170 nM |
| CCCCCCCCCC1CC2CCC3CC(CCCCCCCCC)NC(=N1)N23 (centres unmarked) | Aspergillus fumigatus | microbial growth | ATCC204305 |  | IC50 | 5460 nM |
| COC1C=COC2(C)Oc3c(C)c(O)c4c(c3C2=O)C2=NC3(CCN(CC(C)C)CC3)NC2=C(NC(=O)C(C)=CC=CC(C)C(O)C(C)C(O)C(C)C(OC(=O)c2cccnc2)C1C)C4=O (centres unmarked) | Mycobacteroides abscessus |  | ATCC 19977 | CAMHB | IC50 | 31 nM |
| CCC(NC(=O)CN1C(=O)N/C(=C\c2ccc(C)cc2)C1=O)C(=O)OC (centres unmarked) | Trypanosoma equiperdum | cell viability | IVM-t1 | 72 h | IC50 | > 64000 nM |
| C#CCn1c2ccc([N+](=O)[O-])cc2c(=O)n1Cc1ccccc1 | Leishmania amazonensis | parasite growth, resazurin |  | 72 h, promastigote | IC50 | 900 nM |
| Cc1nc(C)c(C=[N+]([O-])C(C)(C)C)nc1C |  | Western blot, refers to: Akt phospho-Ser473 | mouse, MPTP model | 10 mg/kg | protein level increase | 84% |
| CCOC(=O)CNC(=O)CN1C(=O)S/C(=C\c2ccc(C)cc2)C1=O | Trypanosoma equiperdum | cell viability | IVM-t1 | 72 h | IC50 | > 63000 nM |
| O=[N+]([O-])c1ccc(/C=N/N=C/c2ccc(Br)cc2)s1 | Trypanosoma equiperdum | parasite growth, CellTiter-Glo | IVM-t1 bloodstream form | 72 h | IC50 | 1040 ± 350 nM |
| O=[N+]([O-])/C=C/c1ccc(Br)o1 | Leishmania amazonensis, L. infantum, L. braziliensis |  | promastigotes | mean of three species | IC50 | 1330 nM |
| C=Cn1c2ccc([N+](=O)[O-])cc2c(=O)n1Cc1ccccc1 | Leishmania amazonensis | parasite growth, resazurin |  | 72 h, promastigote | IC50 | 1000 nM |
| COC(=O)C1=CO[C@@H](C)[C@@H]2Cn3ccc4c5ccccc5nc-4c3C[C@H]12 | Plasmodium falciparum | parasite growth, [3H]-hypoxanthine incorporation | 3D7 | 96 h | IC50 | 170 ± 30 nM |
| O=[N+]([O-])c1ccc(/C=N/N=C/c2ccccc2)s1 | Trypanosoma equiperdum | parasite growth, CellTiter-Glo | IVM-t1 bloodstream form | 72 h | IC50 | 330 ± 90 nM |
| NCCn1c2ccc([N+](=O)[O-])cc2c(=O)n1Cc1ccccc1 | Leishmania amazonensis | parasite growth, imaging | mouse Peritoneal macrophage | 48 h, intracellular, amastigote | IC50 | 8500 nM |

Some of these lines once more:
| SMILES | tested on | assay | test system | conditions | endpoint | result |
| --- | --- | --- | --- | --- | --- | --- |
| CCOC(=O)C(NC(=O)CN1C(=O)/C(=C/c2ccc3c(c2)OCO3)SC1=S)C(C)C (centres unmarked) | Trypanosoma equiperdum | cell viability | IVM-t1 | 72 h | IC50 | > 69000 nM |
| CCCn1c2ccc([N+](=O)[O-])cc2c(=O)n1Cc1ccccc1 | Leishmania amazonensis | parasite growth, resazurin |  | 72 h, promastigote | IC50 | 800 nM |
| COc1cc(CNC(=O)C[C@H](C)CCC=C(C)C)ccc1OCc1cn(-c2ccc(Cl)cc2Cl)nn1 | OVCAR-8 ovarian cancer cells | SRB |  | 10 µM, 48 h | growth percent | 29.3% |
